Results from different studies.
Every numbered part comes from another study and shows a few of its results, in no order.

Set 1
Target: RNA binding protein fox-1 homolog 2, RRM domain, GST-SBP tag (RBFOX2, Homo sapiens, UniProt O43251-10, residues 100-194)
Technique: RNA Bind-n-Seq
Form: RNA
Matrix: in vitro
Tested at: 365 nM
Notes: natural RNA segment, single round, ends assumed
Relative to: no-protein control
Reading: higher = stronger binding
Quantity: RBNS enrichment (R)
Target sequence (chain): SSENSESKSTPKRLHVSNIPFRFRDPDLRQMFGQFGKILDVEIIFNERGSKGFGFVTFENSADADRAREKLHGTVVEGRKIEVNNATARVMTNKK
GGGAGUUCUACAGUCCGACGAUCAGAUUCUCUGUCCUUUGCACAUAACUUUCUUUUAAACUUAGUUCUAACCCUAAAUCUUGACAUCAGAAAGUGUUUGCACUGUAUAAACAAUGUUAGCUGAAAGCAUGUUUUGGAAUUCUCGGGUGCCAA: 1.34
GGGAGUUCUACAGUCCGACGAUCUCUAUCAUAUGCCACUUUGACGAACUAAGUUGGAGUUUUUGUUUCAAGUCAACUUGUGUGAUAAGUUCUACUGCACCUAUCUUGGGAAGCAGGGAUACCCUCUUCUUUAGUGGAAUUCUCGGGUGCCAA: 0.3
GGGAGUUCUACAGUCCGACGAUCUUGCACUAAAUUGAACAUGACCCUGUUAGAGAUGUUAUAAAGGGAAUGAAAUCCUGGAACUCAGAGUUAAAUUAAGAACAAGGCAUCCCACAGAACCUAAUCUGAACAAUUGGAAUUCUCGGGUGCCAA: 0.786
GGGAGUUCUACAGUCCGACGAUCUUUUUUUAGAUUAUUUGGUGUACGGUUUUGCUCACAACAAUAGGUGGAAGUUGCUAGUGCAGUCUUGGUCUGAUGGCUGUGUGCAUCGCACAUUCGGCUUGGUGAAAUCCUGGAAUUCUCGGGUGCCAA: 0.454

Set 2
Target: Fragile X messenger ribonucleoprotein 1, C-terminal low-complexity region (Fmr1, Mus musculus, UniProt P35922)
Technique: RNA Bind-n-Seq
Form: RNA
Matrix: in vitro
Tested at: 200 nM
Notes: whole 134-nt RNA, ends assumed
Added: 150 mM KCl
Relative to: input library
Reading: higher = stronger binding
Quantity: log2 enrichment
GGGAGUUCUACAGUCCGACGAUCACCAUGCAGGUGGGCAUCUUUGGGAAGUGGGGCAAGGGGGGGAUUGGGAGGGGGGUAACACUUUGGGAACAGGUGGUCCCAGGUCGUUUCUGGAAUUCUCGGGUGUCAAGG: 0.89
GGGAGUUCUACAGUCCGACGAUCUCCUGUGCUACACAUCGUAUGUACCGAAUCGGGGUGGGGAAAAAAAGGGGUUUUUGGGGAAAGUAUUAUGUUACGCCGUUCGGAUCUGCAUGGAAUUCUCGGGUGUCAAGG: 0.843
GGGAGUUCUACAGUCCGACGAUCUGGCCCUGGUGGCAUGCGGGGAGGAAGAGGUGGCCUCAUGGAUCGAGGUGGUCCCGGUGGAAUGUUCAGAGGUGGCCGUGGUGGAGACAGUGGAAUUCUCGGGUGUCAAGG: 0.0398
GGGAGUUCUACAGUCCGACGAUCUUGAGAUUGGGUGGAUUCCUAUCAUCUGGAAUUCUGACUCCUCGGGUCUCCUUCUCUAGGUAGCCCAGCAGCAGUGAAGAUGCAGACUGAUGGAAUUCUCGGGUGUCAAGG: -1.27
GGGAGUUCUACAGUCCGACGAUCCUGUGCUACACAUCGUAUGUACCGAAUCGGGGAAAAAAGGGGAAAAAAGGGGAAAAAAGGGAAAGUAUUAUGUUACGCCGUUCGGAUCUGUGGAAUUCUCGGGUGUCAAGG: -0.318
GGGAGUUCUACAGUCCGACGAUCCCUCAAGUCCUGUGCUACACAUCGUAUGUACCGAAUCGGGAGGGUGGGUGGGAAAGUAUUAUGUUACGCCGUUCGGAUCUGCACUUCCAGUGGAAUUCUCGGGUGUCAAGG: 1.59

Set 3
Target: Protein C-ets-1 (ETS1, Homo sapiens, UniProt P14921, residues 1-441, Y397A, full length assumed)
Technique: protein-binding microarray
Form: double-stranded DNA, one strand shown
Matrix: in vitro
Tested at: not given
Notes: k-mer, scored over probes, only values ≥0.25
Reading: higher = stronger binding
Quantity: E-score
Construct (chain): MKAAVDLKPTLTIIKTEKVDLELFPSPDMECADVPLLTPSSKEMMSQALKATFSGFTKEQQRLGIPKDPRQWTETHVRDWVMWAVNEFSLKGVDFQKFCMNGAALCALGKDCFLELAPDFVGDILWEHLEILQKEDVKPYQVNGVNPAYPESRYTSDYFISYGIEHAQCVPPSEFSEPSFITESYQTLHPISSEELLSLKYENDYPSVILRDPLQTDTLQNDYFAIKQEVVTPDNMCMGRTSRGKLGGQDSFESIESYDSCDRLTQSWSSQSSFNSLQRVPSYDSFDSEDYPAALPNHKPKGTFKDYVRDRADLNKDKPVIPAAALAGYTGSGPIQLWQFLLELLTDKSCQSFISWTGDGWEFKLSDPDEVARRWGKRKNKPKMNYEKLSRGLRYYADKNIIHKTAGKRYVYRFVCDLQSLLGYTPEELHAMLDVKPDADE
AAATGGCA: 0.289
ATATACAT: 0.311
CAATTGCA: 0.279
CGTTGGCA: 0.365
GATTTGCA: 0.266

Further values, each from its own experiment
PhoQ, residues 284 288 289 292 302 303 SVHLDV
fold induction (PhoP, residues 12 14 15 18 19 NYFTV (Escherichia coli, UniProt P23836); Sort-seq, measured: YFP reporter; E. coli; PhoQ-PhoP variant library, added: 10 µM Mg2+; relative to: high Mg2+ state, higher = stronger signaling): 4.85

Some of these lines once more (set 3):
GATTTGCA: 0.266
